# Measured values of several laboratories.
# Each numbered part is a random draw from the data of one study; scales do not carry over between parts.
# Chain of UniProt P10721 (whole entry, unmodified, looked up): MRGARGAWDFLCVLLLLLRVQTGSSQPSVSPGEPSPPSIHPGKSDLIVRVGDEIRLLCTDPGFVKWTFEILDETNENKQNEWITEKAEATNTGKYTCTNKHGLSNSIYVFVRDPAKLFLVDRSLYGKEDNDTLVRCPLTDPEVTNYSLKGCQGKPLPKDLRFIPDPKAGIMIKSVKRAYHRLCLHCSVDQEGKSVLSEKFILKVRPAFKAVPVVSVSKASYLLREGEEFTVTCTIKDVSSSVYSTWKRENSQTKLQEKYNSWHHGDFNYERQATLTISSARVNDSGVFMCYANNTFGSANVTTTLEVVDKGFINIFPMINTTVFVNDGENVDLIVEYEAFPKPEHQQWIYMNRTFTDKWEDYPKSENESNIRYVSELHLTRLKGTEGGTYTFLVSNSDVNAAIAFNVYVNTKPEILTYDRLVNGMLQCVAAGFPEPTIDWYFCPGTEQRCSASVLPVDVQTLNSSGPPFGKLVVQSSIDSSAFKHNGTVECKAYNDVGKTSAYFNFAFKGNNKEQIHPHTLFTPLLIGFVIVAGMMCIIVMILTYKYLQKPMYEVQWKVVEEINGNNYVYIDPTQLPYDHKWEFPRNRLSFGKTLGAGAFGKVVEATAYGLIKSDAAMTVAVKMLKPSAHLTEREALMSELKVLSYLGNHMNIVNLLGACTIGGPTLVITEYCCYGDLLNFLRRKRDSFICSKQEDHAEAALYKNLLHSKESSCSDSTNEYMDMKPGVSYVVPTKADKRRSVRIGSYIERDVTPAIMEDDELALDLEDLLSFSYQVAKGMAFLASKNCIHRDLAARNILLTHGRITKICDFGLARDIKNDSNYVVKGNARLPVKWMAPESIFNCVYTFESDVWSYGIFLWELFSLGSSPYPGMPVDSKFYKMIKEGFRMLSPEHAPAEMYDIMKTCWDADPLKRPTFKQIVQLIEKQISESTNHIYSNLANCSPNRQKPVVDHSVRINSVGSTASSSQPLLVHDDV
# Chain of UniProt Q13177 (whole entry, looked up): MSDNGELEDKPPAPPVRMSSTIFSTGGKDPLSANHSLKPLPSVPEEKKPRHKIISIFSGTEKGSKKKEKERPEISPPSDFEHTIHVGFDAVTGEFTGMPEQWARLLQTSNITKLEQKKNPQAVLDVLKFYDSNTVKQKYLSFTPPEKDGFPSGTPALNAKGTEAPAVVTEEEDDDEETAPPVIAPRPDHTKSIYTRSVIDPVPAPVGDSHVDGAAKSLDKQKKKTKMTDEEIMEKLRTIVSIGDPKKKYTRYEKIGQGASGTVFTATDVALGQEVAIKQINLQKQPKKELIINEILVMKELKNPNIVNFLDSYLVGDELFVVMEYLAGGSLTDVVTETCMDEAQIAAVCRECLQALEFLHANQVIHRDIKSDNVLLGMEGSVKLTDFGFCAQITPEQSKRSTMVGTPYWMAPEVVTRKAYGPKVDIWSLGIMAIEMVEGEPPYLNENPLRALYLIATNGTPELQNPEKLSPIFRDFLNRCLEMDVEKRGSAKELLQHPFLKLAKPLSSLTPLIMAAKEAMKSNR
# Chain of UniProt P45984 (whole entry, looked up): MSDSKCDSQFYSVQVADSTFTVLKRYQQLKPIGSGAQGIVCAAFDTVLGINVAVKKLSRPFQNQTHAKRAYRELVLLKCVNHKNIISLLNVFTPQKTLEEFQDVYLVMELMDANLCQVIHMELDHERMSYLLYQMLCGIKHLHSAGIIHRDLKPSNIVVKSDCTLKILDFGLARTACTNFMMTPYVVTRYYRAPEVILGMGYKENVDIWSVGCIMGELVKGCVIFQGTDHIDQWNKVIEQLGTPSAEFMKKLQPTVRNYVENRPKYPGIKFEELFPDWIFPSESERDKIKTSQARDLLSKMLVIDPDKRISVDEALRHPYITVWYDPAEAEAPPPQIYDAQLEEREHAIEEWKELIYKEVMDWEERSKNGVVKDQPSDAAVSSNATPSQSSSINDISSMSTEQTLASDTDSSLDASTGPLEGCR
# Chain of UniProt Q15831 (whole entry, looked up): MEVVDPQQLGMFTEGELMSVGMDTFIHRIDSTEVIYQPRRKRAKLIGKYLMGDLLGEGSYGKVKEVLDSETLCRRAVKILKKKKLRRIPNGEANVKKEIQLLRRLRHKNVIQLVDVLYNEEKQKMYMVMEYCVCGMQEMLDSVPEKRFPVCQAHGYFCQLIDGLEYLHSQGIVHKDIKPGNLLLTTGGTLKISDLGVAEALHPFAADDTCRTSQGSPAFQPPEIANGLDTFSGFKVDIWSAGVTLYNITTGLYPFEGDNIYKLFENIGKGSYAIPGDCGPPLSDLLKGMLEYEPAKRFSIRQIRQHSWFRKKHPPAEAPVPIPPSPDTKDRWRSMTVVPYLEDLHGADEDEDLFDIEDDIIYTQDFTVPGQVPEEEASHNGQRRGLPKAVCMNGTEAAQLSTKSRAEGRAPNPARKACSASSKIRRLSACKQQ

# Set 1 — read-out: kinase activity
# SMILES: CNc1ncc2cc(-c3cc(OC)cc(OC)c3Cl)c(=O)n(CCc3ccc(NC(=O)C(C#N)=CC(C)(C)N4CCOCC4)cc3)c2n1
# HIPK1: Homeodomain-interacting protein kinase 1 (HIPK1, Homo sapiens, UniProt Q86Z02)
# Chain of UniProt Q86Z02 (whole entry, looked up): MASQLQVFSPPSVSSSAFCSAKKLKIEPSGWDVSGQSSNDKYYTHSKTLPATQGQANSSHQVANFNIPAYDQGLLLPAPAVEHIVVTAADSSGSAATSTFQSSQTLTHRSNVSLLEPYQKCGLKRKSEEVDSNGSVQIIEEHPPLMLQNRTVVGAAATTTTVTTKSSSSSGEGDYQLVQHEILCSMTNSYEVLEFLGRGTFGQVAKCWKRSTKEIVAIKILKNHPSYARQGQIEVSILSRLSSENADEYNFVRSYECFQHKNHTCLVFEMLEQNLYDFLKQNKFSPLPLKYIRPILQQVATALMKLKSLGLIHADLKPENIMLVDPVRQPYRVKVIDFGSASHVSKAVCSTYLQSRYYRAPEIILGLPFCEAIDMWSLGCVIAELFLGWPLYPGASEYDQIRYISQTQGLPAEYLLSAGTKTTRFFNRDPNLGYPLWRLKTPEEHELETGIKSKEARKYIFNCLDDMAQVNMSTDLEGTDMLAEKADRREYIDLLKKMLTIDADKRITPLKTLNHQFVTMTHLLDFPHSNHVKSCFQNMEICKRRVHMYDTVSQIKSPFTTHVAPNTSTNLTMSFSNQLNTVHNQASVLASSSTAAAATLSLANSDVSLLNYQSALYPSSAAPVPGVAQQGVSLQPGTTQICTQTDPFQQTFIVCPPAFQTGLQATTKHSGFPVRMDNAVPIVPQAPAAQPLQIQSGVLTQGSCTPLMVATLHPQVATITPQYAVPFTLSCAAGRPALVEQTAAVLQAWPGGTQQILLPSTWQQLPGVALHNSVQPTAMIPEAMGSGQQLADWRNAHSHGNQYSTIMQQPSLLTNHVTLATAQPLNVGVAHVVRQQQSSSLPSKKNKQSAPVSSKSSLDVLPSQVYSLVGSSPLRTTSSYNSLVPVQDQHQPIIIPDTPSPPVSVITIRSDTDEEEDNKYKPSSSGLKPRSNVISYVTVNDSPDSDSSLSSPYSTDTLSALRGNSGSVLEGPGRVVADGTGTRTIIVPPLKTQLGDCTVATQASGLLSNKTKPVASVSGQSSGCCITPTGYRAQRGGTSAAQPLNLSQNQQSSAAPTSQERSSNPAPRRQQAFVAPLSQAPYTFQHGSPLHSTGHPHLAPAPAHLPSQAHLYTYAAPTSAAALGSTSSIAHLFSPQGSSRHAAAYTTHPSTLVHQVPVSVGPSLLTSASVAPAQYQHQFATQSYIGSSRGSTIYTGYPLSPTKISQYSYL
target,setting,inhibition
"MAPK3 (Homo sapiens, UniProt P27361)",0.1 µM,6%
HIPK1,0.1 µM,-5%
"AKT1 (Homo sapiens, UniProt P31749)",1 µM,-1%
"EPHB4 (Homo sapiens, UniProt P54760)",1 µM,1%
"CHEK2 (Homo sapiens, UniProt O96017)",0.1 µM,-2%
"PLK1 (Homo sapiens, UniProt P53350)",0.1 µM,-2%
"MAPK13 (Homo sapiens, UniProt O15264)",0.1 µM,-1%
"CSF1R (Homo sapiens, UniProt P07333)",0.1 µM,83%
"Cyclin-dependent kinase 6, with cyclin D3 (CDK6, Homo sapiens, UniProt Q00534)",0.1 µM,0%
HIPK1,1 µM,-1%
"KDR (Homo sapiens, UniProt P35968)",1 µM,85%
"MELK (Homo sapiens, UniProt Q14680)",0.1 µM,1%
"MAPK9 (Homo sapiens, UniProt P45984)",1 µM,7%
"PTK2B (Homo sapiens, UniProt Q14289)",1 µM,3%
"EPHB3 (Homo sapiens, UniProt P54753)",0.1 µM,1%
"HCK (Homo sapiens, UniProt P08631)",0.1 µM,1%

# Set 2 — cell line: U-87 MG; tested at: concentration not given; baseline: DMSO
# SMILES: CCN1/C(=C/C=C2\CCCC(/C=C/C3=[N+](CC)c4ccccc4C3(C)C)=C2NCCCCCCCCN2CCC(Nc3nc4ccccc4n3Cc3ccc(F)cc3)CC2)C(C)(C)c2ccccc21
test,log2 fold change
item: RFTN1 mRNA,1.87
item: SERPINB2 mRNA,1.68
item: NTHL1 mRNA,-1.21
item: C1GALT1C1 mRNA,-1.27
item: CENPC mRNA,-0.941
item: PCNA mRNA,-1.38
item: BIRC5 mRNA,-1.66
item: UBTF mRNA,-1.6
item: SEC16B mRNA,-2.65
item: PCDHGA9 mRNA,-1.22
item: TNXB mRNA,-1.94
item: MID1 mRNA,-1.31

# Set 3 — read-out: thermal unfolding; method: differential scanning fluorimetry; tested at: 5.5 µM; direction: higher = more unfolded
# SMILES: C[C@@H]1CN(c2ccc(-c3cc(C(=O)NCCOCCOCCOCCOCCOCCOCCNC(=O)/C=C/c4[nH]cc(C(=O)N[C@@H](CC(N)=O)c5ccc(F)c(Cl)c5)c4-c4ccc(Cl)cc4F)ccc3F)cc2NC(=O)c2ccc(F)cc2C(F)(F)F)C[C@H](C)N1C
# DCAF1: DDB1- and CUL4-associated factor 1 (DCAF1, Homo sapiens, UniProt Q9Y4B6)
# Chain of UniProt Q9Y4B6 (whole entry, looked up): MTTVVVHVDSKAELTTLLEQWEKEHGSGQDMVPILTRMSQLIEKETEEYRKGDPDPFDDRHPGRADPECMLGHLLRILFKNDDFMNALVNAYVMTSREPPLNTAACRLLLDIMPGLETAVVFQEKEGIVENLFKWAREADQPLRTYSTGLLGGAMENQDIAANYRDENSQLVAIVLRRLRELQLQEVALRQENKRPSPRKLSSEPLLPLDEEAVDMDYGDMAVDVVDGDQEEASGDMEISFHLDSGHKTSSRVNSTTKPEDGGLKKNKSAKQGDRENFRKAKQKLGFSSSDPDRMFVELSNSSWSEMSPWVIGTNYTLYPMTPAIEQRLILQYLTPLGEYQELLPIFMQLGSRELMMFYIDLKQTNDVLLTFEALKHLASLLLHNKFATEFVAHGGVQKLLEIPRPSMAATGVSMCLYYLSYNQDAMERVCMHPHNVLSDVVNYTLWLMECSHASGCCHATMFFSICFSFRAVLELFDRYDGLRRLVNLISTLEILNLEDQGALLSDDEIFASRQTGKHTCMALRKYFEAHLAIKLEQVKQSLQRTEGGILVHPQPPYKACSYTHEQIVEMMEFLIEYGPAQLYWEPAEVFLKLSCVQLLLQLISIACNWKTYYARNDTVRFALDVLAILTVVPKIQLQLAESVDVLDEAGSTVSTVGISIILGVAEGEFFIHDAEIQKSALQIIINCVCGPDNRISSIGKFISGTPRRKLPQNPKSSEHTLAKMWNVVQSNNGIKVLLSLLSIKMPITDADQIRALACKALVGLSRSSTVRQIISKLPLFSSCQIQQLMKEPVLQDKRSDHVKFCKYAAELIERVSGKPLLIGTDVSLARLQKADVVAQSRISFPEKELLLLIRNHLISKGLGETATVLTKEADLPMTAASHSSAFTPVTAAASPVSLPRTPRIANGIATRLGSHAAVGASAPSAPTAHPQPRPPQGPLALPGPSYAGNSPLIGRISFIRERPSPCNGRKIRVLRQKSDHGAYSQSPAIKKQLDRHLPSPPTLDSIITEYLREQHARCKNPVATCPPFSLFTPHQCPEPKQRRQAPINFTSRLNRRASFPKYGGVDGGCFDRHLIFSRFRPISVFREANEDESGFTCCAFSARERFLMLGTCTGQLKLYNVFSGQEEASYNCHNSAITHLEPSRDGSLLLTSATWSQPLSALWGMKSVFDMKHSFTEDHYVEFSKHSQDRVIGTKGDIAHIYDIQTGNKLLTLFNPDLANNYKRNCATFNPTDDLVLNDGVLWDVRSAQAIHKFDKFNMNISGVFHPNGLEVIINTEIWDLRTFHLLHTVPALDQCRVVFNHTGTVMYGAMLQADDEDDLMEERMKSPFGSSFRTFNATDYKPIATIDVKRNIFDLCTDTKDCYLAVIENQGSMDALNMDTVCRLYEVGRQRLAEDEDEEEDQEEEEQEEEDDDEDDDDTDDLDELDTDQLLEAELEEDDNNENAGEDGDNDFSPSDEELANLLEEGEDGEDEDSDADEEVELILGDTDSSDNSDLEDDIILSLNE
# WDR5: WD repeat-containing protein 5 (WDR5, Homo sapiens, UniProt P61964)
target,setting,SYPRO Orange fluorescence [a.u.]
DCAF1,66.21 °C,52500
WDR5,58.01 °C,15700
WDR5,60.01 °C,15400
DCAF1,28.4 °C,8020
DCAF1,42.4 °C,13100
DCAF1,51.6 °C,19800
WDR5,42 °C,14300
WDR5,63.61 °C,15500
DCAF1,56.21 °C,31200
WDR5,75.81 °C,52100
DCAF1,79.41 °C,40300

# Set 4
# SMILES: COc1cc(-c2nc3ccc(C(=O)NCCCN4CCN(c5cccc(C)c5C)CC4)cc3n2C2CCC2)cc(OC)c1OC
target,test,setting,remaining binding
"Tyrosine-protein kinase ABL1, phosphorylated (ABL1, Homo sapiens, UniProt P00519, F317I)","binding, competition with immobilised ligand",1 µM,84%
"EGFR (Homo sapiens, UniProt P00533)","binding, competition with immobilised ligand",1 µM,86%
"SRPK2 (Homo sapiens, UniProt P78362)","binding, competition with immobilised ligand",1 µM,80%
"ERBB3 (Homo sapiens, UniProt P21860)",KINOMEscan,1000 nM,80%
"HUNK (Homo sapiens, UniProt P57058)","binding, competition with immobilised ligand",1 µM,100%
"CDK9 (Homo sapiens, UniProt P50750)","binding, competition with immobilised ligand",1 µM,100%
"DMPK (Homo sapiens, UniProt Q09013)","binding, competition with immobilised ligand",1 µM,100%
"WNK4 (Homo sapiens, UniProt Q96J92)","binding, competition with immobilised ligand",1 µM,100%
"FLT3 (Homo sapiens, UniProt P36888)","binding, competition with immobilised ligand",1 µM,98%
"PAK2 (Homo sapiens, UniProt Q13177)","binding, competition with immobilised ligand",1 µM,100%
"TSSK3 (Homo sapiens, UniProt Q96PN8)","binding, competition with immobilised ligand",1 µM,89%
"NTRK3 (Homo sapiens, UniProt Q16288)","binding, competition with immobilised ligand",1 µM,100%
"NEK10 (Homo sapiens, UniProt Q6ZWH5)","binding, competition with immobilised ligand",1 µM,93%
"KIT (Homo sapiens, UniProt P10721)","binding, competition with immobilised ligand",1 µM,100%
"STK11 (Homo sapiens, UniProt Q15831)","binding, competition with immobilised ligand",1 µM,89%
"PIK3CB (Homo sapiens, UniProt P42338)","binding, competition with immobilised ligand",1 µM,94%
"Ribosomal protein S6 kinase alpha-5, C-terminal kinase domain (RPS6KA5, Homo sapiens, UniProt O75582)","binding, competition with immobilised ligand",1 µM,100%
"SRPK1 (Homo sapiens, UniProt Q96SB4)","binding, competition with immobilised ligand",1 µM,100%
"NLK (Homo sapiens, UniProt Q9UBE8)","binding, competition with immobilised ligand",1 µM,81%
"KIT (Homo sapiens, UniProt P10721, D816H)","binding, competition with immobilised ligand",1 µM,71%
"BMPR2 (Homo sapiens, UniProt Q13873)","binding, competition with immobilised ligand",1 µM,89%

# Some of these lines once more (set 4):
target,test,setting,remaining binding
"WNK4 (Homo sapiens, UniProt Q96J92)","binding, competition with immobilised ligand",1 µM,100%
"ERBB3 (Homo sapiens, UniProt P21860)",KINOMEscan,1000 nM,80%
"EGFR (Homo sapiens, UniProt P00533)","binding, competition with immobilised ligand",1 µM,86%
"NLK (Homo sapiens, UniProt Q9UBE8)","binding, competition with immobilised ligand",1 µM,81%
"SRPK2 (Homo sapiens, UniProt P78362)","binding, competition with immobilised ligand",1 µM,80%
"BMPR2 (Homo sapiens, UniProt Q13873)","binding, competition with immobilised ligand",1 µM,89%
